Experimental data pooled from the literature.
Protocols differ between the studies behind these lines. ± marks the error that the study gave.
KCNQ3/KCNQ2: Voltage-gated potassium channel, KQT; KCNQ2(Kv7.2)/KCNQ3(Kv7.3) (KCNQ3/KCNQ2, Homo sapiens, UniProt O43525+O43526)
KLRK1 with ULBP6: NKG2-D type II integral membrane protein, with ULBP6 (KLRK1, Homo sapiens, UniProt P26718)
lasR: Transcriptional activator protein LasR (lasR, Pseudomonas aeruginosa, UniProt P25084)
APP amyloid-beta 1-40 oligomers: Amyloid-beta precursor protein, amyloid-beta 1-40 oligomers (APP, Homo sapiens, UniProt P05067)
lecA: PA-I galactophilic lectin (lecA, Pseudomonas aeruginosa, UniProt Q05097)

| SMILES | target | assay | test system | conditions | scale | measurement | result |
| --- | --- | --- | --- | --- | --- | --- | --- |
| COc1ccc(NC(=O)Cn2c(=O)c3ccccc3n(CC(=O)Nc3cc([125I])c(OC)cc3OC)c2=O)cc1 | Sphingosine 1-phosphate receptor 2 (Rattus norvegicus, UniProt P47752) | in vitro autoradiography | Sprague-Dawley rat, control, kidney sections | dose not given | – | kidney binding | 72 PSL/mm² |
| Nc1nc(Cl)nc2c1ncn2Cc1cc(OCC(F)F)cc(OC(F)F)c1 | PDE4D (Homo sapiens, UniProt Q08499) | – | – | – | relative to: PDE8A1 IC50 over PDE4D2 IC50 | selectivity ratio | 499 fold |
| CCCCC/C=C\C/C=C\C/C=C\C/C=C\CCCC(=O)NC(CO)CO | KCNQ3/KCNQ2 | two-electrode voltage clamp | Xenopus oocytes | 10 µM | – | maximal conductance | no effect |
| Cc1cc(Oc2nc(N3CC[C@@H](c4ccncc4)C3)ncc2F)[nH]n1 | PPAT (Homo sapiens, UniProt Q06203) | – | – | – | relative to: human PPAT over M. tuberculosis PurF | selectivity ratio | > 10000 |
| Cc1cc([C@H](NC(=O)c2cnccc2-c2ccc(C(F)(F)F)cc2)C(=O)N(C)C)cc(C(F)(F)F)c1 | KLRK1 with ULBP6 | ligand binding, inhibitor, TR-FRET | HEK293 expressing NKG2D and DAP10 | together with: ULBP6-AF647 | relative to: positive control | maximum inhibition | 103% |
| O=[N+]([O-])c1ccc(OP(=O)(O)O)cc1 | Alkaline phosphatase PafA (pafA, Elizabethkingia meningoseptica, UniProt Q9KJX5, N100A) | – | Chryseobacterium meningosepticum | pH 8.0 | relative to: wild type over mutant kcat/KM | relative catalytic efficiency | 2.1 |
| N[C@@H](Cc1c[nH]c2ccccc12)C(=O)O | Transcription attenuation protein MtrB, Δ71 truncation (mtrB, Geobacillus stearothermophilus, UniProt Q9X6J6) | isothermal titration calorimetry | – | concentration not given, 25 °C | – | binding stoichiometry | 12 ± 0.02 |
| CN1/C(=C/C=C/C=C/C2=[N+](CCCCCC(=O)NCCCCCCCCN3[C@@H]4[C@H](C(=O)O)[C@@H](O)[C@H](O)[C@@H](O)[C@@H]43)c3ccccc3C2(C)C)C(C)(C)c2ccccc21 (stereo partly shown) | Beta-glucuronidase (GUSB, Homo sapiens, UniProt P08236) | inhibitor, competitive ABPP | human platelet lysate | – | lowest fully inhibiting | concentration for complete inhibition | 390 nM |
| O=P(O)(O)Oc1ccccc1 | Alkaline phosphatase PafA (pafA, Elizabethkingia meningoseptica, UniProt Q9KJX5, T79S) | – | Chryseobacterium meningosepticum | pH 8.0 | relative to: wild type over mutant kcat/KM | relative catalytic efficiency | 5.9 |
| O=C(N[C@H]1CCOC1=O)c1ccc(-n2cc(-c3cc(F)cc(F)c3)nn2)cc1 | lasR | reporter gene, agonist | Escherichia coli DH5α pJN105L/pSC11 | 10 µM | relative to: OdDHL 100 µM | activation | 0% |
| C/C(=N\OCCCN1CCCCC1)c1ccc(C(F)(F)F)cc1 | Tmem97 (Rattus norvegicus, UniProt Q5U3Y7) | binding, [3H]-DTG radioligand binding | rat brain homogenate | – | relative to: Ki over sigma-1 Ki | selectivity ratio | 196 fold |
| CN(C)C(=O)c1cccc(C(F)(F)F)c1 | APP amyloid-beta 1-40 oligomers | binding, STD NMR | – | highest STD | – | STD NMR signal | 0% |
| Cn1ccc(-c2ccc(Cn3cc(C(=O)N[C@H]4CCCC[C@@H]4O)c4c(F)cc(F)cc43)cn2)n1 | Chrm1 (Mus musculus, UniProt P12657) | calcium mobilization, positive allosteric modulator | CHO cells | together with: EC20 acetylcholine | relative to: ACh maximum | maximum response | 77 ± 1% |
| CNC(=O)C1CCN(c2cc(C)c(F)cc2NC(=O)c2ccc(-c3cc(O)ccc3C)c(C)c2)CC1 | EPHA4 (Homo sapiens, UniProt P54764) | NanoBRET | – | – | relative to: IC50 EPHA2 over EPHA4 | selectivity ratio | 11 fold |
| O=c1c(Cl)c(Cl)cnn1Cc1ccccc1 | Disulfide bond formation protein B (Escherichia coli, UniProt P0A6M2) | DsbA oxidation, inhibitor, AMS alkylation immunoblot | – | aerobic growth | – | concentration for full inhibition | 20 to 50 µM |
| C[C@H](NC(=O)[C@H](Cc1ccccc1)NC(=O)c1ccc(Br)cc1)C(=O)N[C@H](C(=O)N[C@@H](CCCC[N+](C)(C)C)C(=O)N[C@@H](CO)C(N)=O)C1CCCC1 | Chromobox protein homolog 1 (Homo sapiens, UniProt P83916) | competitive fluorescence polarization | – | – | relative to: CBX7 over Chromobox protein homolog 1 | selectivity ratio | 36 fold |

| SMILES | target | assay | test system | conditions | scale | measurement | result |
| --- | --- | --- | --- | --- | --- | --- | --- |
| CC[C@H](C)[C@@H]1NC(=O)[C@H](CC(C)C)NC(=O)[C@H]([C@@H](C)CC)NC(=O)[C@H](CC(C)C)NC(=O)[C@H](CCCNC(=N)N)NC(=O)[C@H](CCCNC(=N)N)NC(=O)CNC(=O)[C@H](CO)NC(=O)[C@H](CC(C)C)NC(=O)[C@H]([C@@H](C)CC)NC(=O)[C@H]([C@@H](C)CC)NC(=O)[C@H]([C@@H](C)CC)NC(=O)[C@H](CC(C)C)NC(=O)[C@H](CCC(N)=O)NC(=O)[C@H](CCCCN)NC(=O)[C@@H](Cc2ccc(O)cc2)NC(=O)CSC[C@@H](C(=O)NCC(N)=O)NC1=O | NNMT (Homo sapiens, UniProt P40261) | inhibitor | – | increasing inhibitor concentration, together with: nicotinamide 200 µM | – | Km of SAM | no effect |
| O=C(N[C@H]1CCOC1=O)c1cccc(-n2cc(C3CCCCC3)nn2)c1 | lasR | reporter gene, agonist | Escherichia coli DH5α pJN105L/pSC11 | 10 µM | relative to: OdDHL 100 µM | activation | 0% |
| OC(CCNCCc1c[nH]c2ccccc12)C(F)(F)F (stereo not shown) | APP amyloid-beta 1-40 oligomers | binding, STD NMR | – | highest STD | – | STD NMR signal | 2.77% |
| Nc1ncnc2c1ncn2C1OC(CSCCCCNCc2cccc(-c3ccc(Cl)cc3)c2)C(O)C1O (stereo not shown) | DNA adenine methyltransferase CamA (Clostridioides difficile, UniProt Q183J3) | methyltransferase activity, inhibitor | – | concentration not given | relative to: cpd over JNJ-64619178 | relative inhibition | 2.5 |
| CCN(Cc1ccccc1)C(=O)CCc1nc(CN2CCN(C(=O)Cc3ccc(OC)c(OC)c3)CC2)no1 | KCNQ3/KCNQ2 | potassium current, whole-cell patch clamp | CHO, stable | 3 µM | – | activation V1/2 | -41.9 ± 2.47 mV |
| CCOC(=O)/C=C/[C@H](C[C@@H]1CCNC1=O)NC(=O)[C@H](Cc1ccccc1)NC(=O)[C@H](COC(C)(C)C)NC(=O)OCc1ccccc1 | Genome polyprotein, 3C protease (Human parechovirus 1, UniProt Q66578) | protease activity, cell-based reporter | human parechovirus | – | – | FLuc reporter expression | no effect |
| CN(C)C(=O)[C@@H](NC(=O)c1ccccc1-c1ccc(C(F)(F)F)cc1)c1cccc(C(F)(F)F)c1 | NKG2-D type II integral membrane protein, with MICA (KLRK1, Homo sapiens, UniProt P26718) | cellular TR-FRET binding | – | – | – | ligand efficiency | 0.23 |
| Cn1cc(-c2cccc(CN3CCC4(CC3)COc3c4ccc4c3CN([C@H]3CCC(=O)NC3=O)C4=O)c2)cn1 | DNA-binding protein Ikaros (Homo sapiens, UniProt Q13422) | degrader, HiBiT | HEK293 | 6 h | – | Dmax | < 20% |
| CC[C@H](C)[C@H](NC(=O)[C@H](CCCCN)NC(=O)[C@H](Cc1ccccc1)NC(=O)[C@H](CCCCNC(=O)[C@H](CC(C)C)NC(=O)[C@@H]1CCCN1C(=O)[C@H](CCCCN)NC(=O)CCS[C@@H]1O[C@H](CO)[C@H](O)[C@H](O)[C@H]1O)NC(=O)[C@H](CC(C)C)NC(=O)[C@@H]1CCCN1C(=O)[C@H](CCCCN)NC(=O)CCS[C@@H]1O[C@H](CO)[C@H](O)[C@H](O)[C@H]1O)C(N)=O | lecA | binding, isothermal titration calorimetry | – | divided by galactoside copies | relative to: monovalent galactoside KD over ligand KD | relative potency per galactoside | 18 |
| C[C@]1(COC(=O)Cc2ccc(O)c(O)c2)[C@H](C(=O)O)N2C(=O)/C(=C/c3ccccn3)[C@H]2S1(=O)=O | Beta-lactamase (ampC, Pseudomonas aeruginosa, UniProt P24735) | enzyme activity, inhibitor, absorbance | – | – | – | kinact | 0.046 s⁻¹ |
| CC[C@H](C)[C@H](NC(=O)[C@H](Cc1c[nH]cn1)NC(=O)[C@H](CCCCNC(=O)[C@@H](NC(=O)[C@H](CCCCN)NC(=O)[C@H](Cc1ccccc1)NC(=O)[C@H](CCCCNC(=O)[C@H](CC(C)C)NC(=O)[C@@H]1CCCN1C(=O)[C@H](CCCCN)NC(=O)CCS[C@@H]1O[C@H](CO)[C@H](O)[C@H](O)[C@H]1O)NC(=O)[C@H](CC(C)C)NC(=O)[C@@H]1CCCN1C(=O)[C@H](CCCCN)NC(=O)CCS[C@@H]1O[C@H](CO)[C@H](O)[C@H](O)[C@H]1O)[C@@H](C)CC)NC(=O)[C@@H](NC(=O)[C@H](CCCCN)NC(=O)[C@H](Cc1ccccc1)NC(=O)[C@H](CCCCNC(=O)[C@H](CC(C)C)NC(=O)[C@@H]1CCCN1C(=O)[C@H](CCCCN)NC(=O)CCS[C@@H]1O[C@H](CO)[C@H](O)[C@H](O)[C@H]1O)NC(=O)[C@H](CC(C)C)NC(=O)[C@@H]1CCCN1C(=O)[C@H](CCCCN)NC(=O)CCS[C@@H]1O[C@H](CO)[C@H](O)[C@H](O)[C@H]1O)[C@@H](C)CC)C(N)=O | lecA | ITC | – | pH 7.5, 25 °C | – | entropy term (−TΔS) | 0.3 kcal/mol |
| COc1ccc(-c2coc3cc(OCCN4CCCC[C@@H]4C)ccc3c2=O)cc1 | Ache (Rattus norvegicus, UniProt P37136) | inhibitor, Ellman method | rat | – | – | binding free energy | -6.4 kcal/mol |
| C[C@@]1(O)CC[C@H]2[C@H](CC[C@@H]3[C@@H]2CC[C@]2(C)[C@@H](C(=O)Cn4cccn4)CC[C@@H]32)C1 | Membrane progesterone receptor epsilon (Paqr9, Mus musculus, UniProt Q6TCG2) | pPKA/PKA immunoblot | MDA-MB-231 expressing Paqr9-GFP | 300 nM, 20 min | relative to: control | PKA activation | 97.5 ± 11.2% |
| CN(C)C(=O)[C@H]1NC(=O)c2cnccc2-c2ccc(cc2)C(F)(F)CCCC(F)(F)c2cccc1c2 | KLRK1 with ULBP6 | ligand binding, inhibitor, TR-FRET | HEK293 expressing NKG2D and DAP10 | together with: ULBP6-AF647 | relative to: positive control | maximum inhibition | 96% |
| Cc1cc(C2=CCN(CC3OCCO3)CC2)cc([N+](=O)[O-])c1N | HTR2B (Homo sapiens, UniProt P41595) | β-arrestin recruitment, agonist | – | – | – | Emax | 105% |

Excerpt of the above:
| SMILES | target | assay | test system | conditions | scale | measurement | result |
| --- | --- | --- | --- | --- | --- | --- | --- |
| C[C@H](NC(=O)[C@H](Cc1ccccc1)NC(=O)c1ccc(Br)cc1)C(=O)N[C@H](C(=O)N[C@@H](CCCC[N+](C)(C)C)C(=O)N[C@@H](CO)C(N)=O)C1CCCC1 | Chromobox protein homolog 1 (Homo sapiens, UniProt P83916) | competitive fluorescence polarization | – | – | relative to: CBX7 over Chromobox protein homolog 1 | selectivity ratio | 36 fold |
| CC[C@H](C)[C@H](NC(=O)[C@H](Cc1c[nH]cn1)NC(=O)[C@H](CCCCNC(=O)[C@@H](NC(=O)[C@H](CCCCN)NC(=O)[C@H](Cc1ccccc1)NC(=O)[C@H](CCCCNC(=O)[C@H](CC(C)C)NC(=O)[C@@H]1CCCN1C(=O)[C@H](CCCCN)NC(=O)CCS[C@@H]1O[C@H](CO)[C@H](O)[C@H](O)[C@H]1O)NC(=O)[C@H](CC(C)C)NC(=O)[C@@H]1CCCN1C(=O)[C@H](CCCCN)NC(=O)CCS[C@@H]1O[C@H](CO)[C@H](O)[C@H](O)[C@H]1O)[C@@H](C)CC)NC(=O)[C@@H](NC(=O)[C@H](CCCCN)NC(=O)[C@H](Cc1ccccc1)NC(=O)[C@H](CCCCNC(=O)[C@H](CC(C)C)NC(=O)[C@@H]1CCCN1C(=O)[C@H](CCCCN)NC(=O)CCS[C@@H]1O[C@H](CO)[C@H](O)[C@H](O)[C@H]1O)NC(=O)[C@H](CC(C)C)NC(=O)[C@@H]1CCCN1C(=O)[C@H](CCCCN)NC(=O)CCS[C@@H]1O[C@H](CO)[C@H](O)[C@H](O)[C@H]1O)[C@@H](C)CC)C(N)=O | lecA | ITC | – | pH 7.5, 25 °C | – | entropy term (−TΔS) | 0.3 kcal/mol |
| C[C@]1(COC(=O)Cc2ccc(O)c(O)c2)[C@H](C(=O)O)N2C(=O)/C(=C/c3ccccn3)[C@H]2S1(=O)=O | Beta-lactamase (ampC, Pseudomonas aeruginosa, UniProt P24735) | enzyme activity, inhibitor, absorbance | – | – | – | kinact | 0.046 s⁻¹ |
